# Published values from different studies.
# Every numbered part comes from another study and shows a few of its results, in no order.

# Study 1 — target: UBE2S UBC core domain (UniProt Q16763); method: yeast two-hybrid; medium: yeast; setting: mostly zero background; reference: not given; reading: higher = stronger interaction
# B1: RNF150 RING domain (UniProt Q9ULK6); chain DKETESDFDNCAVCIEGYKPNDVVRILPCRHLFHKSCVDPWLLDHRTCPMCKMNILKALGIP
# B2: RFPL2 RING domain (UniProt O75678); chain MAALFQEASSCPVCSDYLEKPMSLECGCAVCLKCINSLQKEPHGEDLLCCCSSMVSRKNKIRR
# B3: TRIM10 RING domain (UniProt Q9UDY6); chain SVTSLADEVNCPICQGTLREPVTIDCGHNFCRACLTRYCEIPGPDLEESPTCPLCKEPFRPGSFRP
# B4: RNF4 RING domain (UniProt P78317); chain TGLRPSGTVSCPICMDGYSEIVQNGRLIVSTECGHVFCSQCLRDSLKNANTCPTCRKKINHKRYHP
# B5: TRIM55 RING domain (UniProt Q9BYV6); chain TMDNLEKQLICPICLEMFTKPVVILPCQHNLCRKCASDIFQASNPYLPTRGGTTMASGGRFRCPSCRHEVVLDRHG
# B6: PEX2 RING domain (UniProt P28328); chain DNTLATSGKECALCGEWPTMPHTIGCEHIFCYFCAKSSFLFDVYFTCPKCGTEVHSLQPLK
# B7: TRIM35 RING domain (UniProt Q9UPQ4); chain PSRSFKEELLCAVCYDPFRDAVTLRCGHNFCRGCVSRCWEVQVSPTCPVCKDRASPADLRT
# B8: NSMCE1 RING domain (UniProt Q8WV22); chain RETYPDAVKICNICHSLLIQGQSCETCGIRMHLPCVAKYFQSNAEPRCPHCNDYWPHEIPKV
# B9: RNF14 RING domain (UniProt Q9UBS8); chain IKCFNSKLFLCSICFCEKLGSECMYFLECRHVYCKACLKDYFEIQIRDGQVQCLNCPEPKCPSVATPGQVK
# Target sequence (chain): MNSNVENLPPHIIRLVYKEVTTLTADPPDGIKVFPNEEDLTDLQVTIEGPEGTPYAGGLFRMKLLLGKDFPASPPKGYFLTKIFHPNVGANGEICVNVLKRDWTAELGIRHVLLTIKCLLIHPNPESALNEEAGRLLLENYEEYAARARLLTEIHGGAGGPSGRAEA
Molecule,lacZ reporter activity
B1 (RNF150 RING domain),0
SYEDKSNDFVCPICFDMIEEAYMTKCGHSFCYKCIHQSLEDNNRCPKCNYVVDNIDHLY (COP1 RING domain (UniProt Q8NHY2)),0
B2 (RFPL2 RING domain),0
LKQVSIRENCCSLCCDEVADTQLKPCGHSDLCMDCALQLETCPLCRKEIVSRIRQI (RSPRY1 RING domain (UniProt Q96DX4)),0
B3 (TRIM10 RING domain),0
B4 (RNF4 RING domain),0
B5 (TRIM55 RING domain),0
KRQCSDVDDICSICQAEFQKPILLICQHIFCEECMTLWFNREKTCPLCRTVISDHINKW (RNFT1 RING domain (UniProt Q5M7Z0)),0
KIKDLNEHIVCCLCAGYFVDATTITECLHTFCKSCIVKYLQTSKYCPMCNIKIHETQPLL (PCGF1 RING domain (UniProt Q9BSM1)),0
B6 (PEX2 RING domain),0
B7 (TRIM35 RING domain),0
FLKKLEQSFMCVCCQELVYQPVTTECFHNVCKDCLQRSFKAQVFSCPACRHDLGQNYIMI (UHRF2 RING domain (UniProt Q96PU4)),0
B8 (NSMCE1 RING domain),0
B9 (RNF14 RING domain),0

# Study 2 — method: protein-binding microarray; form: double-stranded DNA, one strand shown; medium: in vitro; concentration: 2540 nM top; setting: 60-bp whole probe; together with: salmon DNA 0.4 mg/ml; reference: random background probes; reading: higher = stronger binding; all sequences stand within: GCCTAGCAC … GTCTTGATTCGCTTGACGCTGCTG
# Target: Interferon regulatory factor 3, full length, phosphomimetic (IRF3, Homo sapiens, UniProt Q14653, residues 1-427, S386D/S396D/S398D/S402D/T404D/S405D)
# UniProt Q14653, sequence (whole entry, unmodified, looked up): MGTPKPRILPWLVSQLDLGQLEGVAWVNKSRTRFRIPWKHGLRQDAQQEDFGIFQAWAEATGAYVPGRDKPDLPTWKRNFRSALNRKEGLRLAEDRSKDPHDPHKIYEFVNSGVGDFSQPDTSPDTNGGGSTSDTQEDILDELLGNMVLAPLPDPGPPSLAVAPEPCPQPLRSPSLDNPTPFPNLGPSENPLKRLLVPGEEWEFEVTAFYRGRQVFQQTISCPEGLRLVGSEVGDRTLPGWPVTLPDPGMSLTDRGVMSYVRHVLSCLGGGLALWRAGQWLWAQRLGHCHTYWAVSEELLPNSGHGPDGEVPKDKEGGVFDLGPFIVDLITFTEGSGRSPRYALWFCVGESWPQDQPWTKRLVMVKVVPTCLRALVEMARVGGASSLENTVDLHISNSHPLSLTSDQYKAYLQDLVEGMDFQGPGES
Oligonucleotide,fitted relative affinity [z-score]
GACGATATCATACTGGAGACGTGCTAG,0.376
GACGGGATCCTTTTCCTGACGTGCTAG,5.37
TCATTTCTCAAATGTTTTACTGTGCTA,2.35
TTAAAACTGGGGTATCGATTAGTGCTA,-0.285
TTAGGTATCGACATTCGGTTAGTGCTA,0.752
GACGGTCTCCTTAACCTGACGTGCTAG,1.09
TCCATCATTGCTTTCTCTTTGTGCTAG,0.857
TCACCTCTTTCACTGGTACTGTGCTAG,1.14
TTAGGTATCGACTCTGGGTTAGTGCTA,0.651
CATCATTGCCTATTTTTCACCGTGCTA,0.514
GACGGTATCGGACTGGGGAGGTGCTAG,1.41
TTAGGTTTTGGTTTCGGTTAGTGCTAG,7.98
TCAAAACTCGTATGTGACACTGTGCTA,-0.231
TGTCATTTTCTCTTATTCTAGTGCTAG,2.55
AGTATGTTCCCTATTTAAGAGTGCTAG,3.07
CTAGGTATCCTTCTCCTTTAGTGCTAG,6.9
TTAGGTATCCTTATCCTTTCGTGCTAG,5.54
TTAGGTCTGCTACTGCTTTAGTGCTAG,-0.766
AACGAACTGAGTATCGAGACGTGCTAG,0.00392
GACGAACTGGGGATTGGAGACGTGCTA,-0.418
TTCTAATTTACTTTGGTTGGGTGCTAG,0.497

# Study 3 — method: universal PBM; form: double-stranded DNA, one strand shown; medium: in vitro; concentration: not given; reading: higher = stronger binding
# Target: Sal-like protein 4, full length isoform B (SALL4, Homo sapiens, UniProt Q9UJQ4-2, residues 1-616)
# Setting: 8-mer, flanks averaged, mean of replicates
# Residues (chain): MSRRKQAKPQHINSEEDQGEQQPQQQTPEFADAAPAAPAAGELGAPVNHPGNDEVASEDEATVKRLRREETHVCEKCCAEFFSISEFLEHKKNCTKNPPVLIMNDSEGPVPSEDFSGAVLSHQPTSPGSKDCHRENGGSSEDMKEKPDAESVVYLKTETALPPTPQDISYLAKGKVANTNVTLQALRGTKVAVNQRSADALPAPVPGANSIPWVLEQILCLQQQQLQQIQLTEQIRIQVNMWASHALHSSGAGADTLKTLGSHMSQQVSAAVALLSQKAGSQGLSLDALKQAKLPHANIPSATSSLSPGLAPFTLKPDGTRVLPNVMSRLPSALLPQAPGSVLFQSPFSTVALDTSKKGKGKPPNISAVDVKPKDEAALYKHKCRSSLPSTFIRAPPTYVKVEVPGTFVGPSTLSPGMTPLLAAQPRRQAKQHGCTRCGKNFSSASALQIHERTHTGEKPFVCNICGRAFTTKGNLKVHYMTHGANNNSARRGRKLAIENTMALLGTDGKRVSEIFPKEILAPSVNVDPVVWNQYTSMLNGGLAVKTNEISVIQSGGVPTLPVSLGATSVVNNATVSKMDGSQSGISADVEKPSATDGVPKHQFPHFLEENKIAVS
Oligonucleotide,E-score
AGTCTCTC,-0.155
TACTCCGA,-0.141
CAGGGTGC,-0.345
AAGGCGCT,-0.14
CAAAATAG,0.072
CCGTAGTC,-0.178
GCTACTAA,0.064
CACTAGCA,-0.0236
CTTCGAGA,-0.0031
ATGGTGGG,-0.222
GGCTGTTA,0.0492
GCGTGAGC,-0.113
ATCCATGC,-0.00157
CAATTAGC,0.124
AAGTAAGT,0.194
AGCCGTCG,-0.228
CCCGACTC,-0.234
CAAGACCG,-0.277
CGCTATAA,0.187
ACCCGAGA,-0.258
CTACTCTA,0.125
ACAATACA,0.198
GGCAGGCC,-0.364
ACATCGGG,-0.261
CGAAACCG,-0.213

# Study 4 — method: protein-binding microarray; form: double-stranded DNA, one strand shown; medium: in vitro; concentration: not given; reading: higher = stronger binding
# Target: Cyclic AMP-responsive element-binding protein 1 (CREB1, Homo sapiens, UniProt P16220, residues 1-327, full length assumed)
# UniProt P16220, sequence (whole entry, looked up): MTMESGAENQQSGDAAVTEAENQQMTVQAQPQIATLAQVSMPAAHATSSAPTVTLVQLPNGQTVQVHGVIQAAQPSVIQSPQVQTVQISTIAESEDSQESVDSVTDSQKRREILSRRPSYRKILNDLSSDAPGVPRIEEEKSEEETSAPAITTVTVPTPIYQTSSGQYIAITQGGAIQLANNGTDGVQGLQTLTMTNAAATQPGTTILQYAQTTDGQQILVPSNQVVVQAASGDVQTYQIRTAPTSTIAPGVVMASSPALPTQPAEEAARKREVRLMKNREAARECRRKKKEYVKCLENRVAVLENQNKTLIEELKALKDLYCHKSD
# Setting: k-mer, scored over probes, only values ≥0.25
Oligonucleotide,E-score
ATGTGAA,0.276
AAATGAC,0.32
CACGTAA,0.4
AATATTA,0.289
AACGTGT,0.253
CGTAATC,0.383
ATATGTG,0.267
TAATATA,0.309
ACATATA,0.259
AATGATG,0.268
AACACGT,0.342
ACGTAGA,0.331
GTACGTA,0.32

# Some of these lines once more (study 2):
Oligonucleotide,fitted relative affinity [z-score]
GACGGGATCCTTTTCCTGACGTGCTAG,5.37
TCATTTCTCAAATGTTTTACTGTGCTA,2.35
TTAAAACTGGGGTATCGATTAGTGCTA,-0.285
TTAGGTATCGACATTCGGTTAGTGCTA,0.752
GACGGTCTCCTTAACCTGACGTGCTAG,1.09
TCCATCATTGCTTTCTCTTTGTGCTAG,0.857
TCACCTCTTTCACTGGTACTGTGCTAG,1.14
TTAGGTATCGACTCTGGGTTAGTGCTA,0.651
CATCATTGCCTATTTTTCACCGTGCTA,0.514
GACGGTATCGGACTGGGGAGGTGCTAG,1.41
